Published values collected from several papers.
Every numbered part comes from another study and shows a few of its results, in no order. Substitutions count along the parent as printed.

Sample 1 — method: protein-binding microarray; molecule type: double-stranded DNA, one strand shown; medium: in vitro; concentration: 940 nM top; notes: 60-bp whole probe; together with: salmon DNA 0.4 mg/ml; relative to: random background probes; direction: higher = stronger binding; all sequences stand within: GCCTAGCAC … GTCTTGATTCGCTTGACGCTGCTG
Target: Interferon regulatory factor 5, full length, phosphomimetic (IRF5, Homo sapiens, UniProt Q13568-2, residues 1-514, S451D/S453D/S456D/S462D)
| Sequence | fitted relative affinity |
| --- | --- |
| GACCGACTGGGTCTCGGGACGTGCTAG | 0.085 z-score |
| CTCGCTATGTTGTCCAGGCTGGTGCTA | -0.359 z-score |
| GACGGTTTCATTTTCCTGACGTGCTAG | 4.97 z-score |
| GACGGACTGTACTATCGGGACGTGCTA | -0.328 z-score |
| TTAGGACTGGGTATCGATTAGTGCTAG | 3.28 z-score |
| TCATTTTCCTTATTGCTTACTGTGCTA | 1.74 z-score |
| TCATTTCTCTTTCATTGCACTGTGCTA | 2.04 z-score |
| TCATTTTTCTAAGTAAAACTGTGCTAG | 0.0642 z-score |
| GTAGGTATCCTTTTCCTTTAGTGCTAG | 0.526 z-score |
| TCATATTTATTTTTACAACTGTGCTAG | 0.779 z-score |
| TTAGGTTTCCTTTGCCTTTAGTGCTAG | 2.05 z-score |
| TCAGTTCACTATTTAAGACTGTGCTAG | 0.159 z-score |
| GACGATATCATTCTCGAGACGTGCTAG | 1.02 z-score |
| TCATTTTTCTACTTCTCACTGTGCTAG | 2.08 z-score |
| GACGACTTCAGACTGGAGACGTGCTAG | -0.303 z-score |
| TTAGGACTGCTTCTCCTCTAGTGCTAG | -0.126 z-score |

Sample 2 — method: universal PBM; molecule type: double-stranded DNA, one strand shown; medium: in vitro; concentration: not given; direction: higher = stronger binding
Target: Sal-like protein 4, full length isoform B (SALL4, Homo sapiens, UniProt Q9UJQ4-2, residues 1-616)
Notes: 8-mer, flanks averaged, mean of replicates
Target sequence (chain): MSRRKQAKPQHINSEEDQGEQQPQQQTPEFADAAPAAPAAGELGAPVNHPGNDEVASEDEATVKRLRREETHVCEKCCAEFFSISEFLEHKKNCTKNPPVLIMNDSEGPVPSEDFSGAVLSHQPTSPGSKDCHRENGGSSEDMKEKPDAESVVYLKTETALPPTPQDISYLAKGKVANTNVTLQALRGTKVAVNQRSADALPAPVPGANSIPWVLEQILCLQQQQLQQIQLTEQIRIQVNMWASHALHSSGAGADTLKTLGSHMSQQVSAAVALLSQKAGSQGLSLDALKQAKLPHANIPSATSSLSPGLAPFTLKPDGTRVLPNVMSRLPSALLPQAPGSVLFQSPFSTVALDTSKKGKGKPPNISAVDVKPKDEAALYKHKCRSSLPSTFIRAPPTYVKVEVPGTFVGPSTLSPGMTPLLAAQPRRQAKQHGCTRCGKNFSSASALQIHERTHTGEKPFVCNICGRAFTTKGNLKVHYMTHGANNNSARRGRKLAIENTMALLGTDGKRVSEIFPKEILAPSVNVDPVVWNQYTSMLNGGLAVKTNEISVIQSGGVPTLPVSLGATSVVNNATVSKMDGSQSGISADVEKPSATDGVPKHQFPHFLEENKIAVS
| Sequence | E-score |
| --- | --- |
| GCCACCCC | -0.308 |
| CAATTGCG | -0.0952 |
| ATGACAGG | -0.0355 |
| AAAGCTAA | 0.0837 |
| GGAGACAC | -0.0884 |
| ACCAGCAA | 0.0207 |
| CTTCCCCA | -0.28 |
| CACACCGC | -0.336 |
| ACGCACGT | -0.0315 |
| CTTGCGGA | -0.214 |
| CTAATACC | 0.0644 |
| CTGCTCAA | -0.102 |
| CCCAGCAA | -0.0882 |
| CCAAAGAC | -0.14 |
| ACTTCCTA | 0.107 |
| GGGATCAA | 0.0247 |
| ATACCGAC | -0.0881 |
| CCAAAGTA | 0.088 |
| CATGGTAC | 0.0153 |
| ACAGATCA | -0.0742 |
| CCGGCCCA | -0.279 |
| AAGCTGGC | -0.171 |
| CTCATTGA | -0.0409 |
| ATTTGGCA | 0.158 |
| AAAGTGCC | -0.14 |

Sample 3 — method: RNA Bind-n-Seq; molecule type: RNA; medium: in vitro; concentration: 200 nM; notes: whole 134-nt RNA, ends assumed; together with: 150 mM LiCl; relative to: input library; direction: higher = stronger binding; library: 7-deaza-guanosine replaces G
Target: Fragile X messenger ribonucleoprotein 1, C-terminal low-complexity region (Fmr1, Mus musculus, UniProt P35922)
All sequences stand within: GGGAGUUCUACAGUCCGACGAUC … UGGAAUUCUCGGGUGUCAAGG
| Sequence | log2 enrichment |
| --- | --- |
| ACCAUGCAGGUGGGCAUCUUUGGGAAGUGGGGCAAAAGGGGGAUAGGGAGGGGGGUAACACUUUGGGAACAGGUGGUCCCAGGUCGUUUC | 1.26 |
| CUCAAGUCCUGUGCUACACAUCGUAUGUACCGAAUCGGGGCGGGGCGGGCGGGGAAAGUAUUAUGUUACGCCGUUCGGAUCUGCACUUCC | -0.58 |
| CAAGUCCUGUGCUACACAUCGUAUGUACCGAAUCGGUUUUGGGUUUUGGGUUUUGGAAAGUAUUAUGUUACGCCGUUCGGAUCUGCACUU | -1.88 |
| UGGAGAAGCGCUACCUGGCUGCUCAGCGUGAGGCAACAUCCAUCCAUGACCUCAAUGACAAGCUGGAGAAUGAGCUGGCCAACAAGGAGU | -0.442 |
| AGUCCUGUGCUACACAUCGUAUGUACCGAAUCAAAUUUAAACCCCCCCAAACCCAAAAAAGUAUUAUGUUACGCCGUUCGGAUCUGCACU | 1.39 |
| CUCAAGUCCUGUGCUACACAUCGUAUGUACCGAAUCGGUUGGGGUUGGUUGGGGAAAGUAUUAUGUUACGCCGUUCGGAUCUGCACUUCC | -0.599 |
| AAGUCCUGUGCUACACAUCGUAUGUACCGAAUCGGAAAGGAAAAAGGUUUUUUUGGAAAGUAUUAUGUUACGCCGUUCGGAUCUGCACUU | -2.3 |
| UCCUGUGCUACACAUCGUAUGUACCGAAUCGGAAAAAAAGGUUUUUUUGGAAAAAAAGGAAAGUAUUAUGUUACGCCGUUCGGAUCUGCA | -2.27 |
| GUCCUGUGCUACACAUCGUAUGUACCGAAUCGGGGAAAAAGGGGAAAGGGGUUUGGGGAAAGUAUUAUGUUACGCCGUUCGGAUCUGCAC | -0.726 |
| GGGGAGGUGGAUUUUGUUUAUUUUUUUAGCUCAUUUCCAGGGGUGGGAAUUUUUUUUUAAUAUGUGUCAUGAAUAAAGUUGUUUUUGAAA | 0.883 |
| CAAGUCCUGUGCUACACAUCGUAUGUACCGAAUCGGUUUGGAAAGGAAAAAAAGGAAAGUAUUAUGUUACGCCGUUCGGAUCUGCACUUC | -0.862 |

Sample 4 — target: CCNE1, cyclin fold, Cln2 fusion (human); method: yeast growth competition, sequencing; medium: yeast; notes: weak parent motif; relative to: not given; direction: higher = stronger binding
Starting sequence: SAMHD1 docking peptide (human); ASKSRVQLFKDDP
| Substitution | normalised enrichment score |
| --- | --- |
| ASKSRVQLKKDDP [F9K] | -0.253 |
| ASKSRVQLFKSDP [D11S] | 0.488 |
| ASKSEVQLFKDDP [R5E] | 0.0426 |
| ASKSRVQMFKDDP [L8M] | -0.245 |
| AMKSRVQLFKDDP [S2M] | 0.127 |
| ASKTRVQLFKDDP [S4T] | 0.401 |
| ASKCRVQLFKDDP [S4C] | 2.73 |
| ASKSRVQLFKDGP [D12G] | 0.293 |
| ASISRVQLFKDDP [K3I] | 0.137 |
| ASKSRVQLFNDDP [K10N] | 0.55 |
| AHKSRVQLFKDDP [S2H] | 0.634 |
| ASKSRVQLFKDNP [D12N] | 0.252 |
| ASKSRVQLVKDDP [F9V] | 0.114 |
| ASKSRVQLFMDDP [K10M] | 0.347 |

Sample 5 — method: RNA Bind-n-Seq; molecule type: RNA; medium: in vitro; concentration: 365 nM; relative to: no-protein control; direction: higher = stronger binding
Target: RNA binding protein fox-1 homolog 2, RRM domain, GST-SBP tag (RBFOX2, Homo sapiens, UniProt O43251-10, residues 100-194)
Notes: natural RNA segment, single round, ends assumed
All sequences stand within: GGGAGUUCUACAGUCCGACGAUC … UGGAAUUCUCGGGUGCCAA
| Sequence | RBNS enrichment (R) |
| --- | --- |
| GACAAAUCAUGGUAGAGGUGCCCACCAACCAGUUUGCACAGUGGAGGCCACCUGACAUGCAUUAGCCUGGACUUCUCUGAGAGCUGGGCACAGCUUGCAGGACCCUGGCU | 1.71 |
| UUCACAAAAAUAGUCCUUUGUCAUUACAUUAUUUACUCAUGUGUUUGUACAUUUUUGUAUGUUAAUUUAUGAAUGAUUUUUUCAGUAAAAAAUACAUAUUCAAGAACCAA | 0.708 |
| ACUGAGACACAUGAAAUAAGAUAAAUCUUUUUUUUAAAUCUAAAAUGGAAGGCUACUAGGAGCCACUACACUAACCUUUCUUCAUGCAUAAAUCCAAUGAGUACUACCCC | 0.556 |
| UAAGAUGACUCUCCAUCUAGAUCAAGUCUUAGCAUCAUACGCAUCACUGUGAACGGAGGGAAGUGCGUGGGGUCAGGUGACCUGACUCCAACGAUUUGGUCAAGGAGGUU | 0.676 |
| UUUUUAUAAUAUUAUCUAUGGGAUGUCAGCACAAUAUAACACUCUGGGAAGAAGUGGAGUUUUUUGGUUAUUAGGUUAAUUUUCUAGUAAAACACGUUGCCUGUUUUCAG | 0.813 |
| UGAUUGAUUUUUAUGCUUGUUAGUGUAUUGCAAGAAACACAGAAAAUGUAGUUUUGUUUUAAUAAACAAAAAUUGAACAUACUCUUGAUGUGUUUGAUUUGUAUUUAAAA | 2.2 |
| AGAAGUGUUCCAUCCUGAGCGAUUUCUGGACAGCAGUGGAUAUUUUGCCAAGAAGGAAGCUUUGGUUCCUUUUUCCCUAGGAAGAAGACAUUGUCUUGGAGAACACUUGG | 0.386 |
| CCUGGAGAGAAGAACUGUGUCCUUUACUGUAUUUCAACAGGACUCUUUUGGGGGAUCAAAAUUAAAAUUCCUAAUUAUGCAUUAUCUUUCUUUUCUCCAGUCCUCACAAA | 0.795 |
| CAGUAAUUUGAAAAUGAGAUAUUAGGAAAAACCAAUUCUUCUUAAAUUUAGUUCAUCUUUCUUUAAAAGAACAUUAAAUGUAACCAUUUUGUCAGAUCCAUGUAUUUUGG | 0.44 |
| GUCACUGGUAGGUAAGCAUGAGUUAAGGAAAGUCAAAAAUGAAAAUAUAUUUUGCUGUGUAUAAAUUGAUAUUUUGCUAUGCAACUCCUGUAAUUGAAUUUGUAUAAUGC | 6.5 |
| UUAAGAUGGAAGACUUCCUUCUUGACAAAUUGUGUUUUUAGUGAAUUUCUUAAACCGUUUUAUUUAGCCCUCCUUCCCUCUUUCUAGUUGGAAGCCAAAUGUACUCAUGA | 0.476 |
| UGGUGAAGCGCUCUCUGUCCUGGCUGGUUUUUUGUCACCGCAAUCCACUGCCAAAGGCAGAAUUUAAACUAGGGGCUGAGGGAUAGCUCCGAGUAAUGUCCAAUGCUGGG | 0.771 |

Repeated from above (sample 1):
| Sequence | fitted relative affinity |
| --- | --- |
| CTCGCTATGTTGTCCAGGCTGGTGCTA | -0.359 z-score |
| GACCGACTGGGTCTCGGGACGTGCTAG | 0.085 z-score |
| TCATTTTTCTAAGTAAAACTGTGCTAG | 0.0642 z-score |
| TCATTTTTCTACTTCTCACTGTGCTAG | 2.08 z-score |
| GACGACTTCAGACTGGAGACGTGCTAG | -0.303 z-score |
| GACGGACTGTACTATCGGGACGTGCTA | -0.328 z-score |
| TCATTTTCCTTATTGCTTACTGTGCTA | 1.74 z-score |
| TCAGTTCACTATTTAAGACTGTGCTAG | 0.159 z-score |
| GACGGTTTCATTTTCCTGACGTGCTAG | 4.97 z-score |
| TCATTTCTCTTTCATTGCACTGTGCTA | 2.04 z-score |
